Measured values of several laboratories.
Each line is one published result; not all experiments were run side by side.
MC4R: Melanocortin receptor 4 (MC4R, Homo sapiens, UniProt P32245)
UniProt P32245, sequence (whole entry, looked up): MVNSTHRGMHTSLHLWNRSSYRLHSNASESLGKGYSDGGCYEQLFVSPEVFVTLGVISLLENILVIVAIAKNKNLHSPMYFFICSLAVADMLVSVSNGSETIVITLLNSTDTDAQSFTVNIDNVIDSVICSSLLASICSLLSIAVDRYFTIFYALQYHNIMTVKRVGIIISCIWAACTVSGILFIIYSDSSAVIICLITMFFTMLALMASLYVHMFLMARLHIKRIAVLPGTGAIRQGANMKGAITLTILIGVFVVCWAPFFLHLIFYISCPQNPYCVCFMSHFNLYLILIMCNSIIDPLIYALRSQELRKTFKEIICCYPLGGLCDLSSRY
PPARG: Peroxisome proliferator-activated receptor gamma (PPARG, Homo sapiens, UniProt P37231)
UniProt P37231, sequence (whole entry, looked up): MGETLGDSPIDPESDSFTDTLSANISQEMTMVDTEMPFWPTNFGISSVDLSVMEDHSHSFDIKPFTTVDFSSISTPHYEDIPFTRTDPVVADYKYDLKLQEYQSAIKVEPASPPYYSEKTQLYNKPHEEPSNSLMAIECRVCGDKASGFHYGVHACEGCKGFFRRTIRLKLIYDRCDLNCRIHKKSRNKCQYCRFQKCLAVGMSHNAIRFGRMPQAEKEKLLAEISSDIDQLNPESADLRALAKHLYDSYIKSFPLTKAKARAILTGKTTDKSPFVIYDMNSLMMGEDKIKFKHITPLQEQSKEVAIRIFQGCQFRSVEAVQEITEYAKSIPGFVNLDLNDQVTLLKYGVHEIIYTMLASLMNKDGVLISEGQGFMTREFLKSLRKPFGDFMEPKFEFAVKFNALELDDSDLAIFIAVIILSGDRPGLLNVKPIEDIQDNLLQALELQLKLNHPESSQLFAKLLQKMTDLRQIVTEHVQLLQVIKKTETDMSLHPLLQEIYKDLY
HDAC1: Histone deacetylase 1 (HDAC1, Homo sapiens, UniProt Q13547)
UniProt Q13547, sequence (whole entry, looked up): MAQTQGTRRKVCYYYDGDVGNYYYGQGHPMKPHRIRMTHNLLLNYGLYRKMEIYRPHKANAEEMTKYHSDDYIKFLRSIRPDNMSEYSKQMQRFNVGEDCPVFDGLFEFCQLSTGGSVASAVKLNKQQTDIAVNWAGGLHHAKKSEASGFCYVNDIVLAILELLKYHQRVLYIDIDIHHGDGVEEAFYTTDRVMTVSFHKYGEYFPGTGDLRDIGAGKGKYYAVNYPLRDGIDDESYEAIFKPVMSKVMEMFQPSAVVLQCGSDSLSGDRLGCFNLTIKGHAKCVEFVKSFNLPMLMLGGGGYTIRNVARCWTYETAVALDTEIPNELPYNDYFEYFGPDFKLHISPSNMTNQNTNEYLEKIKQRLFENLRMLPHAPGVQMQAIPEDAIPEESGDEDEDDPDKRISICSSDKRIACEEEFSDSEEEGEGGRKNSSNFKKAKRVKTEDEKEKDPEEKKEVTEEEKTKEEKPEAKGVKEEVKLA
UniProt P08575, sequence (whole entry, looked up): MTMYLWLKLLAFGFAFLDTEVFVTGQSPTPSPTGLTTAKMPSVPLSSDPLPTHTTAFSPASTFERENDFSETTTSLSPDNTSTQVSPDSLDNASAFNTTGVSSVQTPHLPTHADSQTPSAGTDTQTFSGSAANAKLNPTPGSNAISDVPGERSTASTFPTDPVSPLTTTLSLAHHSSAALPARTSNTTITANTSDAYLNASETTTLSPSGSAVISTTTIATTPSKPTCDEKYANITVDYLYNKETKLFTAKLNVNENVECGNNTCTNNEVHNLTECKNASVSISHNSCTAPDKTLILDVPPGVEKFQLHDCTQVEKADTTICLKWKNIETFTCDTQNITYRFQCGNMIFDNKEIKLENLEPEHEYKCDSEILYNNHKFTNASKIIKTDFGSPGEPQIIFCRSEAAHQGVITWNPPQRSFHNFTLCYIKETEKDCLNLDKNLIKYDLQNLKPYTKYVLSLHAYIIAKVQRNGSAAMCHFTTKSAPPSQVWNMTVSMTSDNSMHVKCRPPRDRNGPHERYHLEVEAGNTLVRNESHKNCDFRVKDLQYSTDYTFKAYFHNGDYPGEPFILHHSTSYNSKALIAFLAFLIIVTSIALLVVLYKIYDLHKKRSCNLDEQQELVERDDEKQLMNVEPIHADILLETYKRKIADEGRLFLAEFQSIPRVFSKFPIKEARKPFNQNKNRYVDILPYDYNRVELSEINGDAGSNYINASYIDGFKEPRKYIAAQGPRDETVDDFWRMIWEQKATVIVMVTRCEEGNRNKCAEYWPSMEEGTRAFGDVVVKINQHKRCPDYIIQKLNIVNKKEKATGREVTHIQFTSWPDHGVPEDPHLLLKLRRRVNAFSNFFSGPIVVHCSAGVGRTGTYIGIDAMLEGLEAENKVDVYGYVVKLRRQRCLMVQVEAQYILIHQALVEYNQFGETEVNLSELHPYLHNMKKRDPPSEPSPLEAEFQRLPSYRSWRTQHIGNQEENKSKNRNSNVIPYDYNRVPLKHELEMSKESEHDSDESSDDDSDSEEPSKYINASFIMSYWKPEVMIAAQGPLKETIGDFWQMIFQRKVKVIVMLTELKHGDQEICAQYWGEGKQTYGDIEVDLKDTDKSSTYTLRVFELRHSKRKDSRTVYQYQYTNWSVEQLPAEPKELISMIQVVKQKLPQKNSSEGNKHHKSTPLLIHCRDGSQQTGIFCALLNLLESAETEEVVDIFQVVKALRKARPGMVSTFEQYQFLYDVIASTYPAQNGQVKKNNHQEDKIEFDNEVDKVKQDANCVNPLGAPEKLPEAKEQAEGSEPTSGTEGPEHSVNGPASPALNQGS
UniProt Q9NQR1, sequence (whole entry, looked up): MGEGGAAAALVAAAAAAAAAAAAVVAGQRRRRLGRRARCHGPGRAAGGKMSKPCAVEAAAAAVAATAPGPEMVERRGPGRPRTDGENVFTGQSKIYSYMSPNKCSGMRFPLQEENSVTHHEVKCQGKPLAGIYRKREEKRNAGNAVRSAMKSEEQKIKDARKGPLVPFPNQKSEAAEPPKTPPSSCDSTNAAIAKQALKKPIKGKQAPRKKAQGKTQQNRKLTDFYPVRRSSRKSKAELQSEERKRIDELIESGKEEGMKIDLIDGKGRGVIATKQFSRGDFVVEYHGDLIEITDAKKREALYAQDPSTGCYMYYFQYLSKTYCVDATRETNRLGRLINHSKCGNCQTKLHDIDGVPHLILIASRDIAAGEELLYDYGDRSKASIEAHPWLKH
UniProt O08914, sequence (whole entry, looked up): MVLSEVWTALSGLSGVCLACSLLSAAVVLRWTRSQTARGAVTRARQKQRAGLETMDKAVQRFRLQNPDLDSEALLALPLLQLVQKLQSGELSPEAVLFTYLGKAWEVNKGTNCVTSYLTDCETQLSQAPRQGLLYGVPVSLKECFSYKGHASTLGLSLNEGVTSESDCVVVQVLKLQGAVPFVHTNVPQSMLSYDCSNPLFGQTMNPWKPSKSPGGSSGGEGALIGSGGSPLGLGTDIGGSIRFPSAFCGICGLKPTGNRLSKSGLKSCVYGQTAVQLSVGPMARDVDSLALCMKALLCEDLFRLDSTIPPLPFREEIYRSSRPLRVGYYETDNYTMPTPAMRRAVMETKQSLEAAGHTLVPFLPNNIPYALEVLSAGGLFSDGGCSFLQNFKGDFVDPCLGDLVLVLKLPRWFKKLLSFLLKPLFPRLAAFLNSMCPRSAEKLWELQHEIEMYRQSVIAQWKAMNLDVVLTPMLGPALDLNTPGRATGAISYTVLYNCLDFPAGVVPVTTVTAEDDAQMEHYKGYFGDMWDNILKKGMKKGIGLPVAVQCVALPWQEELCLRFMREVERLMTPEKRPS
UniProt Q8N6T7, sequence (whole entry, looked up): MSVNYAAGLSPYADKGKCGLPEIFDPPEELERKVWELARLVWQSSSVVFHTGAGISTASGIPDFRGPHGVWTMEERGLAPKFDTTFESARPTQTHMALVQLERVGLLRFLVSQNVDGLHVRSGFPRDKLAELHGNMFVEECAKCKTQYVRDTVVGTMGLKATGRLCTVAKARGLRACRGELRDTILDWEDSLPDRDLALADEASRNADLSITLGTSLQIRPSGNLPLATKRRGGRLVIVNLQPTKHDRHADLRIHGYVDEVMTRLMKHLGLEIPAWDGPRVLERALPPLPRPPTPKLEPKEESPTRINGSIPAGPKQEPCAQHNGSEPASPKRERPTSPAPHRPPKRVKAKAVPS
UniProt P07711, sequence (whole entry, looked up): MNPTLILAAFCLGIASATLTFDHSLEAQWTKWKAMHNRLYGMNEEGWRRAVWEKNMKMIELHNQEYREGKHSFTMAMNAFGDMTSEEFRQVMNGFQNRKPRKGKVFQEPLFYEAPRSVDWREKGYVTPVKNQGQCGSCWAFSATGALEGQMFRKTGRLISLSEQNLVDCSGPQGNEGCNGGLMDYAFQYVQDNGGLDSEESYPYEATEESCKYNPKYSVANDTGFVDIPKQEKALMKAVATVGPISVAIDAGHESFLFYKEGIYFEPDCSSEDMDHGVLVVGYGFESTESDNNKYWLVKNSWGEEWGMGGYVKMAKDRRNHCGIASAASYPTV
UniProt P43681, sequence (whole entry, looked up): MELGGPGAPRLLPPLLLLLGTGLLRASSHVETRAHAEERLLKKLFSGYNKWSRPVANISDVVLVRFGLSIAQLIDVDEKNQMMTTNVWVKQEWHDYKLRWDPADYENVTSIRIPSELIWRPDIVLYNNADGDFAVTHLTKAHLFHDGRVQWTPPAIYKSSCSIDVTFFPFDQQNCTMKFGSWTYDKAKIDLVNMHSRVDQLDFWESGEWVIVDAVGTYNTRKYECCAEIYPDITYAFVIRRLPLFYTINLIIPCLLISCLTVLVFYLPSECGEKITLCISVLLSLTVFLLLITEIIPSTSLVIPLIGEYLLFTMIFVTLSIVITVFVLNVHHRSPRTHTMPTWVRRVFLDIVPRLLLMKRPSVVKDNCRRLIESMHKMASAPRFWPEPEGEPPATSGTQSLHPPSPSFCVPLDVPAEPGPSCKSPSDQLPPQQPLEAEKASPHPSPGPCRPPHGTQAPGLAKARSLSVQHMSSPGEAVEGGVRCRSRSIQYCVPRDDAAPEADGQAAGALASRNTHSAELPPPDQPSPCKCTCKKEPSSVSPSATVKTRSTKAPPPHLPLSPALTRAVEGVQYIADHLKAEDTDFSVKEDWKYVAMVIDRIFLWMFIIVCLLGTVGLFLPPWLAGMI

C[Si](C)(C)C[C@H](CN)CC(=O)O  inhibition (Interleukin-1 receptor type 1 (Il1r1, Mus musculus, UniProt P13504); binding, radioligand binding; 250 µM, with: iodinated interleukin-1 beta): 8%
COc1ccc(C[C@H](NC(=O)Cc2cccc(Oc3ccccc3)c2)C(=O)N[C@@H](Cc2c[nH]c3ccccc23)C(=O)NCc2ccc(C)cc2)cc1OC  inhibition (Procathepsin L (CTSL, Homo sapiens, UniProt P07711); enzyme activity, inhibitor; 100 µM): 22%
O=C1CO[C@H](CNC(=O)C2(c3ccc(Cl)cc3)CC2)CN1C1Cc2ccccc2C1  inhibition (CCR5 (Homo sapiens, UniProt P51681); β-arrestin recruitment, antagonist; CCR5; 1 µM): 2%
CN(Cc1ccc(/C=C/C(=O)NO)cc1)CC12CC3CC(CC(C3)C1)C2  inhibition (human H1 receptor; antagonist radioligand binding; 0.05 µM): -7%
CCC(=O)N(C)c1ccc(Cl)c(Cl)c1  inhibition (MC4R; ligand displacement, radioligand; 10 µM): < 10%
Cc1c(Cc2cccc(OC(C)(C)C(=O)O)c2)c2ccc(C(=O)N[C@@H](C)c3cccc(C(C)(C)C)c3)cc2n1CC(C)(C)C  IC50 (PPARG; ligand displacement, TR-FRET): 10 nM
CCn1cc(C(=O)O)c(=O)c2c(N)c(F)c(NC3CCCCC3)cc21  inhibition (TRPM7 (Homo sapiens, UniProt Q96QT4); kinase activity; 0.1 µM, with: ATP at Km): -2.2%
C/C=C/C(=O)Nc1ccc2nc(NCCCCCN(C)C)nc(NCCCCCCN(C)C)c2c1  inhibition (KMT5A (Homo sapiens, UniProt Q9NQR1); enzyme activity, inhibitor, radiometric; 10 µM): 1%
CN(C(=O)n1ccnn1)c1ccccc1  inhibition (Faah (Mus musculus, UniProt O08914); serine hydrolase activity, inhibitor, competitive gel-based ABPP; mouse T-cell proteome; 1 µM, 30 min, 37 °C): > 95%
O=C(NO)c1cc(F)cc(OS(=O)(=O)Oc2ccc3ccccc3c2)c1  inhibition (HDAC1; enzyme activity, inhibitor, fluorescence; 5 µM): 13%
c1ccc(OC[C@H]2CN(CCN3CCc4ccccc43)CCO2)nc1  inhibition (HTR2C (Homo sapiens, UniProt P28335); radioligand binding; concentration not given, with: [3H]mesulergine): 15.5%
Cc1c(COc2cc(OCc3cccc(C#N)c3)c(CNC(CO)CO)cc2Cl)cccc1-c1cccc(OCc2ccc(C(=O)NO)cc2)c1  inhibition (HDAC1; enzyme activity, inhibitor; 1 µM): 15.5%
Cc1c(Cc2ccc(OC(C)C(=O)O)cc2)c2ccc(C(=O)N[C@@H](C)c3ccc(C(C)C)cc3)cc2n1C (some centres unmarked)  IC50 (PPARG; ligand displacement, TR-FRET): 971 nM
CNC(=O)C[C@H](Cc1ccc(C#N)cc1)NC(=O)c1cc(-c2ccc(CN[C@H](C)c3ccc(C)cc3)o2)ccc1Cl  inhibition (MC4R; agonist response, antagonist; human cells; 10 µM, MC4 antagonist): 4%
COc1ncc2nc(C)n(Cc3ncc(S(N)(=O)=O)cc3F)c2c1-c1ccccc1  inhibition (OPRD1 (Homo sapiens, UniProt P41143); antagonist, cell-based; 10 µM): -28.4%
N#C/C(=C\c1ccc(-c2cc(Cl)ccc2Cl)o1)C(=O)Nc1cccc2ncccc12  inhibition (SIRT6 (Homo sapiens, UniProt Q8N6T7); enzyme activity, inhibitor; 10 µM, with: myristoylated substrate): < 5%
COc1ccc(S(=O)(=O)N2CCc3ccccc3C2)cc1N1CCN(C(=O)c2ccc(F)cc2C(F)(F)F)CC1  inhibition (PTPRC (Homo sapiens, UniProt P08575); enzyme activity, inhibitor; 1 µM): -0.9%
O=C1c2sc(-c3ccc(N4CCC(F)C4)nc3F)nc2CCN1c1cccnc1 (centres unmarked)  inhibition (Neuronal acetylcholine receptor; alpha4/beta2 (Homo sapiens, UniProt P17787+P43681); ligand displacement, radioligand; 1 µM): -4%
CC[C@H](C)[C@@H]1NC(=O)[C@H](Cc2ccccc2C(F)(F)F)NC(=O)CCSCc2cccc(n2)CSCCCNC(=O)[C@H](CCCCCC(=O)NO)NC1=O  inhibition (HDAC5 (Homo sapiens, UniProt Q9UQL6); enzyme activity, inhibitor, fluorogenic; 30 µM): 30%
COC1CN([C@H]2CC[C@H]([C@@]3(C)Oc4c(Cl)cc(C(=O)NCc5c(SC)cc(C)[nH]c5=O)c(C)c4O3)CC2)C1  log2 fold change (RNA-seq, measured: TUFT1; human, whole blood; dose not given, 24 h; reference: pretreatment baseline): 1.86

A few entries again:
COc1ccc(C[C@H](NC(=O)Cc2cccc(Oc3ccccc3)c2)C(=O)N[C@@H](Cc2c[nH]c3ccccc23)C(=O)NCc2ccc(C)cc2)cc1OC  inhibition (Procathepsin L (CTSL, Homo sapiens, UniProt P07711); enzyme activity, inhibitor; 100 µM): 22%
CNC(=O)C[C@H](Cc1ccc(C#N)cc1)NC(=O)c1cc(-c2ccc(CN[C@H](C)c3ccc(C)cc3)o2)ccc1Cl  inhibition (MC4R; agonist response, antagonist; human cells; 10 µM, MC4 antagonist): 4%
